# Results collected from several papers.
# Compare with care: the assays were run in different laboratories.
# UniProt Q12809, sequence (whole entry, looked up): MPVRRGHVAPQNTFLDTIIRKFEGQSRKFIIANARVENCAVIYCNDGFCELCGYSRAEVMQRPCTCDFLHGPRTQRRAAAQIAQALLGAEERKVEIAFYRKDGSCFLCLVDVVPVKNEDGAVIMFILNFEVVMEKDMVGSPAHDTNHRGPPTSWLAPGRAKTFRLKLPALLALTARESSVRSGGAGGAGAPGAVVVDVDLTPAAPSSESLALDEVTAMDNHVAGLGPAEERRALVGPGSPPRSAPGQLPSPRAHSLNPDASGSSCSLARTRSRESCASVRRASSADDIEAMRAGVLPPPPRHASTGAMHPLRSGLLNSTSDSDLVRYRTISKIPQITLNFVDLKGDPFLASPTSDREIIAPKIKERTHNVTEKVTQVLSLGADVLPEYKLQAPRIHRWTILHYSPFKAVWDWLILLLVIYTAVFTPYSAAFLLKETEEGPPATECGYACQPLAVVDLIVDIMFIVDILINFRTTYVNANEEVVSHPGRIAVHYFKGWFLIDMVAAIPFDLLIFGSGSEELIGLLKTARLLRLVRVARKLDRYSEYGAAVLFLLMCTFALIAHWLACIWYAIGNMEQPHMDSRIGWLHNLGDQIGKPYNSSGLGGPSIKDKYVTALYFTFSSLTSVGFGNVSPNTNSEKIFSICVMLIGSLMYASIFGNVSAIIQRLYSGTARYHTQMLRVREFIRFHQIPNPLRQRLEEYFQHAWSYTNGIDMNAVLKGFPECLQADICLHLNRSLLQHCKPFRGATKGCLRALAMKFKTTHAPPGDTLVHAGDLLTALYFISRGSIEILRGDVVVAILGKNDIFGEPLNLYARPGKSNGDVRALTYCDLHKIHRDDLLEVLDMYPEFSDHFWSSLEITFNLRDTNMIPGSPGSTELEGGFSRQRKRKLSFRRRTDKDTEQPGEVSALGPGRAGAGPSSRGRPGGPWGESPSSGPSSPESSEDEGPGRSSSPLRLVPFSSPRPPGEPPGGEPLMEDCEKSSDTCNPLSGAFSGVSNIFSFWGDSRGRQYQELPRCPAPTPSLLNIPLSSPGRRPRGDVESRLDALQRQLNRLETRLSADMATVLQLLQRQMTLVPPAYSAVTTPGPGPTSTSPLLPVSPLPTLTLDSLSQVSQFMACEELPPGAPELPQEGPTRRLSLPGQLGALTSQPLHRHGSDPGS
# UniProt O75582, sequence (whole entry, looked up): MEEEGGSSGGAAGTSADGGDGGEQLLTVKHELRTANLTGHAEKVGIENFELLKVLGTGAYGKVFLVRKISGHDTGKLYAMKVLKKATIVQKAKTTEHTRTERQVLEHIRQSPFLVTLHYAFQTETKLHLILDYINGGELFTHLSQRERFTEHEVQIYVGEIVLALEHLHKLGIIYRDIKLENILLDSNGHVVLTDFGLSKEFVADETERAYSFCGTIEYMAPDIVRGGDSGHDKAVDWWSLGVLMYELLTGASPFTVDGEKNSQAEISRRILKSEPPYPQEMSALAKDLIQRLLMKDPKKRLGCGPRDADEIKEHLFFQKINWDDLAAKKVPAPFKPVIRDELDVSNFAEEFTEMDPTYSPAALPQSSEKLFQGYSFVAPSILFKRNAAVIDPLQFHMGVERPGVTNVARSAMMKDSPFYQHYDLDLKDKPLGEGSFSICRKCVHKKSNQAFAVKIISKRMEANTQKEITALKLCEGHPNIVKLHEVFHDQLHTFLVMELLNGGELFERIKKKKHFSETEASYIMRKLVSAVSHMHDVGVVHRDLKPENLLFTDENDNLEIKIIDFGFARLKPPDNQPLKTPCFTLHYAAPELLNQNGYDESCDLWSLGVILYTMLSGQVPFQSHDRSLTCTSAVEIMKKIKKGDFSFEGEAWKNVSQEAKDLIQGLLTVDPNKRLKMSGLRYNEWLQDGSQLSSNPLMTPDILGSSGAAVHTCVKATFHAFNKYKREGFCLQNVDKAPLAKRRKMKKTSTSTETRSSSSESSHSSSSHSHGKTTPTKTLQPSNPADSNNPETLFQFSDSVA
SMILES,tested on,assay,system,conditions,measurement,value
CC1(C)OC[C@@]2(C)[C@H]3CC[C@@H]4CN(Cc5ccc(Br)cc5)[C@@H](C5=CCOC5=O)C[C@H]4[C@]3(C)CC[C@H]2O1,MRC5,"cell growth or viability, ATP luminescence",,"25 µM, 72 h",cell death,12.9%
COc1cccc(OC)c1-c1cc(C(=O)NC2(C(=O)O)C3CC4CC(C3)CC2C4)nn1-c1ccc(C(=O)N(C)CCCN(C)CCCN(C)C(=O)CN2CCN(CC(=O)[O-])CCN(CC(=O)[O-])CCN(CC(=O)[O-])CC2)cc1C(C)C.[177Lu+3] (stereo not drawn),HT-29 tumour model,,"host not given, blood","72 h, tumour-bearing",tracer uptake,0.1 %ID/g
COc1cccc(OC)c1-c1cc(C(=O)NC2(C(=O)O)C3CC4CC(C3)CC2C4)nn1-c1ccc(C(=O)N(C)CCCN(C)CCCN(C)C(=O)CN2CCN(CC(=O)[O-])CCN(CC(=O)[O-])CCN(CC(=O)[O-])CC2)cc1C(C)C.[177Lu+3] (stereo not drawn),HT-29 tumour model,,"host not given, pancreas","intravenous, 4 h, tumour-bearing",tracer uptake,0.9 %ID/g
O=C1CC[C@H](N2Cc3cc(N4CCN(CC5CCN(c6ccc([C@@H]7c8ccc(O)cc8CC[C@@H]7c7ccccc7)cc6)CC5)CC4)ccc3C2=O)C(=O)N1,,,"female Sprague-Dawley rat, plasma","oral, 20 mg/kg, fed",Cmax,1430 ng/mL
CNc1ncc2c(/C=C/C(=O)N3CCC(OC)CC3)nn(Cc3cccc(C(F)(F)F)c3)c2n1,"Ribosomal protein S6 kinase alpha-5 (RPS6KA5, Homo sapiens, UniProt O75582)","enzyme activity, inhibitor, radiometric",,1 µM,remaining activity,99%
Nc1ccn([C@@H]2O[C@H](CO)[C@@H](O)C2(F)F)c(=O)n1,MDA-MB-231,"cell growth or viability, MTT",,"10 µg/mL, 24 h",viability,42.7%
CCN1CCN(Cc2ccc(NC(=O)c3ccc(C)c(NC(=O)c4cncc(-c5cccs5)c4)c3)cc2C(F)(F)F)CC1,,,"mouse, plasma","intraperitoneal, 15 mg/kg, single dose",AUC(0-t),1600 ng·h/mL
O=C(c1ccc(F)cc1)C1CCN(CCn2c(=O)[nH]c3ccccc3c2=O)CC1,,"metabolic stability, mass spectrometry","mouse, liver microsomes",30 min,compound remaining,32.9%
COc1cccc(-c2n[nH]c(SCc3ccccn3)n2)c1OC,,,"male Sprague-Dawley rat, plasma","oral, 10 mg/kg, 24 h, single dose",concentration,3.6 ng/mL
O=C(CCCCCCC(=O)Nc1ccc(CC[18F])cc1)NO,LNCaP tumour model,,"male nude, tumour","intravenous, 1 h, tumour-bearing",tracer uptake,1.9 %ID/g
CC1(F)CN(C(=O)Cn2c(=O)c(C(=O)NCc3ccc(Cl)cc3)cc3nc(N4CCCC4=O)cnc32)C1,"Voltage-gated inwardly rectifying potassium channel KCNH2 (KCNH2, Homo sapiens, UniProt Q12809)","ion current, inhibitor, patch clamp",,40 µM,inhibition,45%
NCc1cc2c(cc1F)C(=O)N(C1CCC(=O)NC1=O)C2 (stereo not drawn),,,"male cynomolgus monkey, plasma","oral, 0.3 mg/kg, 3 h",concentration,1.4 ng/mL

# A few entries again:
SMILES,tested on,assay,system,conditions,measurement,value
CC1(F)CN(C(=O)Cn2c(=O)c(C(=O)NCc3ccc(Cl)cc3)cc3nc(N4CCCC4=O)cnc32)C1,"Voltage-gated inwardly rectifying potassium channel KCNH2 (KCNH2, Homo sapiens, UniProt Q12809)","ion current, inhibitor, patch clamp",,40 µM,inhibition,45%
NCc1cc2c(cc1F)C(=O)N(C1CCC(=O)NC1=O)C2 (stereo not drawn),,,"male cynomolgus monkey, plasma","oral, 0.3 mg/kg, 3 h",concentration,1.4 ng/mL
